Assay results collected from several papers.
Lines come from different studies, so protocols differ. Values joined by “and” are separate records of one study, mostly repeats; a detail may differ. ± gives the spread as reported. In brackets after ≈: the same amount, converted by molar mass.

Compound | organism | test | system | setting | how to read | endpoint | value
OC[C@H]1O[C@@H](OCCc2ccccc2)[C@H](O)[C@@H](O)[C@@H]1O | Zika virus | viral replication, CCK-8 | Vero C1008 | 10 µM, 96 h |  | inhibition | 17.1 ± 3.88%
CCCCCCCCCC(=O)N[C@@H](Cc1c[nH]c2ccccc12)C(=O)N[C@H](CC(N)=O)C(=O)N[C@@H](CC(=O)O)C(=O)N[C@@H]1C(=O)NCC(=O)N[C@@H](CCCNC(=O)OC2/C=C/CCCCC2)C(=O)N[C@@H](CC(=O)O)C(=O)N[C@H](C)C(=O)N[C@@H](CC(=O)O)C(=O)NCC(=O)N[C@H](CO)C(=O)N[C@@H]([C@H](C)CC(=O)O)C(=O)N[C@@H](CC(=O)c2ccccc2N)C(=O)O[C@@H]1C (some centres unmarked) | Staphylococcus aureus | planktonic bacterial growth, isothermal microcalorimetry | MRSA | 2.5 µg/mL, 24 h, 37 °C |  | peak heat flow | 0 µW
Cc1ccc(C(c2c[nH]c(=O)[nH]c2=O)c2c[nH]c(=O)[nH]c2=O)cc1 | Human immunodeficiency virus 1 | viral replication, inhibitor, ELISA |  | 1 µg/mL |  | inhibition | 21%
CNCc1ccc2c(c1)N(C(=O)OCc1c(F)c(F)c(F)c(F)c1F)[C@H](CNC(=N)N)[C@H]2NC(=O)C(=O)Nc1ccc(Cl)c(F)c1 | HIV-1 | pseudovirus infection | TZM-bl, clade G, X1632_S2_B10 |  |  | IC80 | 4010 nM
CC1=N[C@H](C)Cc2c(-c3ccc(C)cc3)ccc(O)c21 | Plasmodium falciparum | asexual parasite proliferation, SYBR Green I fluorescence | 7G8 |  |  | IC50 | 210 ± 48 nM
Cc1ncsc1-c1ccc(CNC(=O)[C@@H]2C[C@@H](O)CN2C(=O)[C@@H](NC(=O)CN2CCN(C3CN(CCNC(=O)C[C@@H]4N=C(c5ccc(Cl)cc5)c5c(sc(C)c5C)-n5c(C)nnc54)C3)CC2)C(C)(C)C)cc1 | Spodoptera frugiperda | degrader, targeted LC-MS, refers to: BRD3 | Sf9 | 0.01 µM |  | protein level | 28.2% and 30.7% and 51.5% and 44.6%
Cc1cc(C(=O)Nc2nc3cccc(C)c3n2[C@H]2CCCCN(C(=O)/C=C/CN(C)C)C2)ccn1 | Trypanosoma brucei brucei |  | Lister 427 | 16.67 µM, 48 h, kill kinetics |  | proliferation | 1.65% and 2.84% and 2.09% and 0.758% and 0.789% and 0.379%
Nc1ncnc2c1ncn2[C@@H]1O[C@H](CSCc2cccc(C(=O)O)c2)[C@@H](O)[C@H]1O | Murine coronavirus | viral replication, outcome no inhibition | A59 | 200 µM |  | inhibition | no inhibition
COC1C=COC2(C)Oc3c(C)c(O)c4c(c3C2=O)C2=NC3(CCN(CC(C)C)CC3)NC2=C(NC(=O)C(C)=CC=CC(C)C(O)C(C)C(O)C(C)C(OC(=O)Nc2cccnn2)C1C)C4=O (centres unmarked) | Mycobacteroides abscessus | bacterial growth | subsp. massiliense 095 clinical isolate | mixed morphotype |  | IC90 | 166 nM
Nc1nc(-c2ccccc2)nc2[nH]nc(Nc3ccc(F)cc3)c12 | coxsackievirus B3 | viral cytopathic effect | HeLa |  |  | IC50 | 60 nM
COc1cc(O)c(-c2cc(-c3cc(-c4c(O)cc(OC)c5c4C[C@@H](C)N[C@@H]5C)c4cc(C)cc(OC)c4c3O)c(O)c3c(OC)cc(C)cc23)c2c1[C@@H](C)N[C@H](C)C2 | Plasmodium falciparum | asexual parasite growth, SYBR Green I | clinical isolate SB_04, Malawi |  |  | IC50 | 49.2 ± 2.1 nM
Cc1cccc(-c2nc(N)c3c(Nc4ccc(F)cc4)n[nH]c3n2)c1 | coxsackievirus B3 | viral cytopathic effect | HeLa |  |  | IC50 | 600 nM
CC(C)(C)NCC(SS(=O)(=O)O)c1ccccc1 (centres unmarked) | Schistosoma mansoni |  | mice | 600 mg/kg single dose, dosed day 7, perfused 44 |  | female worms recovered | 8 worms per mouse and 9 worms per mouse and 10 worms per mouse and 7 worms per mouse and 12 worms per mouse
O=C(O)c1ccc(C(c2c[nH]c(=O)[nH]c2=O)c2c[nH]c(=O)[nH]c2=O)cc1 | Human immunodeficiency virus 1 | viral replication, inhibitor, ELISA |  | 1 µg/mL |  | inhibition | 16%
CC[C@H](C)[C@H](NC(=O)[C@H](Cc1ccc(O)cc1)NC(=O)[C@H](CCC(=O)O)NC(=O)CNC(=O)[C@H](CCC(=O)O)NC(=O)[C@H](CCCCN)NC(=O)[C@H](CCCCN)NC(=O)[C@H](CC(=O)O)NC(=O)[C@H](Cc1c[nH]cn1)NC(=O)[C@H](Cc1c[nH]cn1)NC(=O)[C@H](Cc1c[nH]cn1)NC(=O)[C@H](Cc1c[nH]cn1)NC(=O)[C@H](Cc1c[nH]cn1)NC(=O)[C@H](Cc1c[nH]cn1)NC(=O)[C@H](Cc1c[nH]cn1)NC(=O)[C@H](Cc1c[nH]cn1)NC(=O)[C@H](Cc1c[nH]cn1)NC(=O)[C@@H](N)Cc1c[nH]cn1)C(=O)N[C@@H](CCCCN)C(=O)N[C@@H](CC(C)C)C(=O)N[C@@H](CCCCN)C(=O)N[C@H](C(=O)N[C@H](C(=O)NCC(=O)N[C@@H](CCC(N)=O)C(=O)N[C@@H](CC(=O)O)C(=O)N[C@@H](CO)C(=O)N[C@@H](CO)C(=O)N[C@@H](CCC(=O)O)C(=O)N[C@H](C(=O)N[C@@H](Cc1c[nH]cn1)C(=O)N[C@@H](Cc1ccccc1)C(=O)N[C@@H](CCCCN)C(=O)N[C@H](C(=O)N[C@@H](CCCCN)C(=O)N[C@@H](CCSC)C(=O)N[C@H](C(=O)N[C@H](C(=O)N[C@@H](Cc1c[nH]cn1)C(=O)N[C@@H](CC(C)C)C(=O)N[C@@H](CCCCN)C(=O)N[C@@H](CCCCN)C(=O)N[C@@H](CC(C)C)C(=O)N[C@@H](CCCCN)C(=O)N[C@@H](CCC(=O)O)C(=O)N[C@@H](CO)C(=O)N[C@@H](Cc1ccc(O)cc1)C(=O)N[C@@H](CS)C(=O)N[C@@H](CCC(N)=O)C(=O)N[C@@H](CCCNC(=N)N)C(=O)N[C@@H](CCC(N)=O)C(=O)O)[C@@H](C)O)[C@@H](C)O)C(C)C)[C@@H](C)CC)[C@@H](C)CC)C(C)C | Drosophila melanogaster | immunoblot | head | 120 µM, normalised to β-actin, unit not given | relative to: untreated | TH level mean difference | -0.557
CC[C@H](C)[C@@H]1NC(=O)[C@@H]([C@@H](C)O)NC(=O)CNC(=O)[C@H](CC(=O)O)NC(=O)CNC(=O)[C@H](CC(=O)O)NC(=O)CNC(=O)[C@H]2CCCCN2C(=O)[C@@H](NC(=O)[C@H](CC(=O)O)NC(=O)/C=C/CCCCCCCCCC(C)C)CNC(=O)[C@@H]2CCCN2C1=O | Staphylococcus simulans | broth microdilution | 22, Mueller-Hinton broth, Mg2+ 10 mg/L | 16 h, 30 °C, with: Ca2+ 2.5 mM |  | MIC | 4 µg/mL (≈ 3.21 µM)
COc1cc(O)c(-c2cc(-c3cc(-c4c(O)cc5c(c4OC)[C@H](C)N[C@H](C)C5)c4cc(C)cc(OC)c4c3O)c(O)c3c(OC)cc(C)cc23)c2c1[C@H](C)N[C@H](C)C2 | Plasmodium falciparum | asexual parasite proliferation, SYBR Green I fluorescence | HB3 |  |  | IC50 | 177 ± 6.2 nM
Cc1ccc(-c2nc(N)c3c(Nc4ccccc4)n[nH]c3n2)cc1 | rhinovirus B42 | viral cytopathic effect | HeLa |  |  | IC50 | 80 nM

Compound | organism | test | system | setting | how to read | endpoint | value
CN(C)CCCSC(=S)N1CCN(C(=O)/C=C/c2coc3ccccc3c2=O)CC1 | PVY | virus inactivation |  | 500 µg/mL |  | inhibition | 71% and 75%
C=C[C@]1(C)C[C@@H](OC(=O)CSc2ccc(NC(=O)c3ccco3)cc2)[C@]2(C)[C@H](C)CC[C@]3(CCC(=O)[C@H]32)[C@@H](C)[C@@H]1O | Mycoplasma gallisepticum |  | infected chickens | intramuscular, 40 mg/kg daily x3, scale 0 to 4 | direction not given | air sac lesion score | 3 and 2 and 1 and 0
Cc1cccc2c1N(C(=O)n1ccnn1)CC2 | Striga hermonthica |  | seeds | 10 µM, with: 10 nM (±)-GR24 |  | germination rate | 42.9% and 71% and 67.6% and 76.9% and 84.8% and 64.9% and 46.2%
COc1ccc(Nc2n[nH]c3nc(-c4ccccc4)nc(N)c23)cc1OC | coxsackievirus B3 | viral cytopathic effect | HeLa |  |  | IC50 | 3590 nM
CC1=CC(OC=C2C(=O)OC3c4ccccc4CC23)OC1=O (racemic) | Striga hermonthica | seed germination, stimulant |  |  |  | EC50 | 1.5 nM
O=c1[nH]cc(C(c2ccc(Br)cc2)c2c[nH]c(=O)[nH]c2=O)c(=O)[nH]1 | Human immunodeficiency virus 1 | viral replication, inhibitor, ELISA |  | 1 µg/mL |  | inhibition | 22%
C=C(NC(=O)c1csc(-c2nc3c(cc2O)-c2nc(cs2)C(=O)NC(C(C)O)C(=O)NC(=C(C)OC)c2nc(cs2)C(=O)NC2c4nc(cs4)C(=O)NC(COC(=O)c4c5c6c(cccc6n4O)COC(=O)C(OC4CC(C)(O)C(N(C)C)C(C)O4)C2OC5)c2nc-3cs2)n1)C(N)=O (centres unmarked) | Staphylococcus aureus |  | MRSA, 10 isolates | serum 50% |  | MIC50 | 0.0625 µg/mL (≈ 0.0435 µM)
O=C(O)c1cc(O)ccc1O | Streptomyces coelicolor | RT-PCR |  | 2 mM, 1 h |  | pcaH mRNA level | increased
Oc1ccc(-c2cccc3ccccc23)c2c1C=NCC2 | Plasmodium falciparum | parasite growth, SYBR Green | NF54 | blood stage |  | IC50 | 1420 nM
COc1ccc(Nc2n[nH]c3nc(-c4ccccc4)nc(N)c23)cc1 | coxsackievirus B3 | viral cytopathic effect | HeLa |  |  | IC50 | 5110 nM
COc1ccc(-c2ccc(OC(C)C)c3cnccc23)c2ccccc12 | Plasmodium falciparum | parasite growth, SYBR Green | NF54 | blood stage |  | IC50 | 25400 nM
Cc1cccc(Nc2n[nH]c3nc(-c4ccc(F)cc4F)nc(N)c23)c1 | coxsackievirus B3 | viral cytopathic effect | HeLa |  |  | IC50 | 8430 nM
Cc1ccccc1C(c1c[nH]c(=O)[nH]c1=O)c1c[nH]c(=O)[nH]c1=O | Human immunodeficiency virus 1 | viral replication, inhibitor, ELISA |  | 1 µg/mL |  | inhibition | 64%
Nc1nc(-c2ccc(C(F)(F)F)cc2)nc2[nH]nc(Nc3ccc(F)cc3)c12 | rhinovirus B42 | viral cytopathic effect | HeLa |  |  | IC50 | 3180 nM
O=c1[nH]cc(C(c2ccc(Oc3ccccc3)cc2)c2c[nH]c(=O)[nH]c2=O)c(=O)[nH]1 | Human immunodeficiency virus 1 | viral replication, inhibitor, ELISA |  | 1 µg/mL |  | inhibition | 33%
Cc1ccc(Nc2n[nH]c3nc(-c4ccccc4)nc(N)c23)cc1 | rhinovirus B42 | viral cytopathic effect | HeLa |  |  | IC50 | 10 nM
CN(Cc1ccc(C2(C(F)(F)F)CCC2)cc1)Cc1cccc2ccccc12 | Trichophyton rubrum | microbial growth, disc diffusion | ATCC28188 | 0.00025 µg/mL, 6 days |  | inhibition zone | 0 mm
